Measured values pooled from the literature.
Protocols differ between the studies behind these lines. Values joined by “and” are separate records of one study, mostly repeats; a detail may differ. ± gives the spread as reported.

SMILES | cell line | technique | concentration | time | notes | baseline | viability
O=C(Nc1ccccc1OS(=O)(=O)c1ccc(F)cc1)c1ccc2ncccc2c1 | HEK293T cells | MTT | 100 µM | 24 h |  | untreated | 81.5 ± 1.14%
CC(=O)Nc1cccc(-n2c(=O)n(C3CC3)c(=O)c3c(Nc4ccc(I)cc4F)n(C)c(=O)c(C)c32)c1 | LoVo (KRAS G13D) | resazurin | 100.00 nM | 72 h | unit not given | DMSO | 0.302 and 0.281
COc1cccc2c1C(=O)c1c(O)c3c(c(O)c1C2=O)C[C@@](O)(C(=O)CO)C[C@@H]3O[C@H]1C[C@H](N)[C@H](O)[C@H](C)O1 | HEK293T cells | MTT | 10 µM | 24 h |  | untreated | 56.15 ± 0.46%
CCCCCCCCN(CCC(=O)Nc1ccccc1)C(=O)[C@H]1CCCN1 | Lmna+/+ mouse fibroblasts | MTT | 2 µM | 72 h |  | vehicle | 114 ± 6%
O=c1[nH]cc(F)c(=O)[nH]1 | H1299 | CCK-8 | 50 µM | 72 h |  | control | 32.39 ± 0.16%
CNc1ccc([N+](=O)[O-])cc1-n1cnc(-c2ccc(C(F)(F)F)cc2)c1 | HEK-Blue hTLR2 | MTT | up to 100 µM | 24 h |  |  | not toxic
C[C@]12CC[C@@H]3c4ccc(O)cc4C[C@@H](CCCCCCCCC[S+]([O-])CCCC(F)(F)C(F)(F)F)[C@H]3[C@@H]1CC[C@@H]2O (stereo partly drawn) | T47D | CCK-8 | 200 nM |  |  | untreated | 66.6% and 65.8% and 70.1%
COc1ccc2c(c1OC)CN1CCc3cc4c(cc3C1=C2)OCO4 | KU812 | crystal violet | up to 37 µM | 24 and 48 h |  |  | not toxic
CC[C@]1(O)C[C@H]2CN(CCc3c([nH]c4ccccc34)[C@@](C(=O)OC)(c3cc4c(cc3OC)N(C=O)[C@H]3[C@@](O)(C(=O)OC)[C@H](OC(C)=O)[C@]5(CC)C=CCN6CC[C@]43[C@@H]65)C2)C1 | CHP-212 resistant subline R2 (heterozygous USP7 V517F) | cell viability | 123.5 nM |  |  |  | 13.5% and 17.7% and 13.7%

Some of these lines once more:
SMILES | cell line | technique | concentration | time | notes | baseline | viability
CNc1ccc([N+](=O)[O-])cc1-n1cnc(-c2ccc(C(F)(F)F)cc2)c1 | HEK-Blue hTLR2 | MTT | up to 100 µM | 24 h |  |  | not toxic
